# Results collected from several papers.
# Several values in a cell are separate wells, animals, samples, runs or records. ± marks the error that the study gave.
Compound,target,test,test system,conditions,scale,endpoint,value
CCOC(=O)[C@](CC)(CCCSCCOCCOCCN)NC(=O)c1ccc(C2CC2)c(Cc2ccc(F)cc2)n1,"Cnr2 (Mus musculus, UniProt P47936)","cAMP, agonist",,,,Emax,91%
N#CN1CC[C@H](C(=O)Nc2nc3c(s2)CN(C(=O)CN=[N+]=[N-])CC3)C1,"Pyruvate carboxylase, mitochondrial (Homo sapiens, UniProt P11498)",click pull-down LC-MS/MS,HEK293T cells,,,total spectral count,4
C[Si](C)(C)C[C@H](CN)CC(=O)O,"DRD2 (Homo sapiens, UniProt P14416)","ligand displacement, radioligand",,250 µM,,inhibition,-19%
CCCCCC(O)/C=C/C=O (stereo not shown),"TBC1 domain family member 13 (TBC1D13, Homo sapiens, UniProt Q9NVG8)",competitive isoTOP-ABPP,"proteome, soluble, MDA-MB-231","100 µM, 60 min, together with: iodoacetamide probe","baseline: DMSO over compound-treated, higher = stronger cysteine blockade",isoTOP-ABPP competition ratio,1.2
"CC(=O)C12NC(C)(C)CC1(C)C(=O)C1=C2c2c(c3c4n2C(C)(C)CC2=C4C4(CC(C)(C)NC(C)(C4)C2=O)CC3(C)C)C(=O)C(C)(C)N1 (single isomer, unassigned; (+))","P2X purinoceptor 7 (P2RX7, Homo sapiens, UniProt Q99572)","ion current, agonist, whole-cell patch clamp",HEK293T,10 µM,,activation,1.27%
CC(C=CC=C(C)C=CC1=C(C)CCCC1(C)C)=CC=O,"Rhodopsin (RHO, Homo sapiens, UniProt P08100, T17M)","immunostaining, item: opsin",COS-7 transfected,"20.00 µM, unit not given",baseline: surface over total stained cells,plasma membrane localization,0.78
Cc1cc(C)cc(COc2cc3c(cc2OCc2cc(C)cc(C)c2)C2CC(O)(Cc4cn(CCOCCOCCNC(=O)CCCCC5SCC6NC(=O)NC65)nn4)CC(C)N2CC3)c1 (stereo not shown),"Translocon-associated protein subunit alpha (Homo sapiens, UniProt P43307)","biotinylated probe pull-down, item: SSR1",,10 µM probe,baseline: heavy over light,SILAC ratio,1.33
CC[C@H](C)[C@@H]1NC(=O)[C@H](Cc2c[nH]c3ccccc23)NC(=O)[C@H](C)NC(=O)[C@H](Cc2ccc(O)cc2)NC(=O)CNC(=O)[C@H](Cc2ccccc2)N(C)C(=O)[C@H](C)N(C)C(=O)[C@H](Cc2ccc(O)cc2)NC(=O)[C@H](C(C)C)NC(=O)[C@H](CC(C)C)NC(=O)[C@H](Cc2ccccc2)NC(=O)CSC[C@@H](C(=O)NCC(N)=O)NC1=O,"STING1 (Homo sapiens, UniProt Q86WV6, H232R)","thermal stability, DSF",,100 µM,,ΔTm,0.21 °C
CN(C)c1ccc(-n2cc(COC(=O)[C@@]3(C)C=C(C(=O)OC(C)(C)C)C(=O)CC3)nn2)cc1,"MAPK8 (Homo sapiens, UniProt P45983)","D-peptide binding, inhibitor, FP peptide displacement",,25 µM,lower is stronger displacement,fraction bound,0.799
O=C1c2sc(-c3ccc(N4CCC(F)C4)nc3F)nc2CCN1c1cccnc1 (stereo not shown),"TAR DNA-binding protein 43, aggregated (TARDBP, Homo sapiens, UniProt Q13148)",radioligand binding,"human, FTLD-TDP type A insoluble extract",200 nM,,specific binding,4.13 nM and 5.33 nM
O=C1N(c2cccc(CN3CCN(Cc4ccc(Br)cc4)CC3)c2)C(=O)C12CCCCC2,"Dipeptidyl peptidase 8 (Homo sapiens, UniProt Q6V1X1)","enzyme activity, inhibitor",,5 µM,,activity vs control,7.9%
Nc1ncnc2c1ncn2C1OC(CN(CCCC2CNCc3c2ccc(Cl)c3Cl)CCC(N)C(=O)O)C(O)C1O (mixture of isomers),"PNMT (Homo sapiens, UniProt P11086)",ITC,,"second site, SAH bound",,ΔG-2,-9.4 ± 0.03 kcal/mol
COc1cc(-c2cn(C)c(=O)c3cnccc23)cc(OC)c1CN(C)C,"Bromodomain testis-specific protein, BD1 (BRDT, Homo sapiens, UniProt Q58F21)",,,,,ΔTm,0 °C

# Excerpt of the above:
Compound,target,test,test system,conditions,scale,endpoint,value
CCOC(=O)[C@](CC)(CCCSCCOCCOCCN)NC(=O)c1ccc(C2CC2)c(Cc2ccc(F)cc2)n1,"Cnr2 (Mus musculus, UniProt P47936)","cAMP, agonist",,,,Emax,91%
N#CN1CC[C@H](C(=O)Nc2nc3c(s2)CN(C(=O)CN=[N+]=[N-])CC3)C1,"Pyruvate carboxylase, mitochondrial (Homo sapiens, UniProt P11498)",click pull-down LC-MS/MS,HEK293T cells,,,total spectral count,4
